Measured values gathered from unrelated publications.
Each line is one published result; not all experiments were run side by side.
USP51: Ubiquitin carboxyl-terminal hydrolase 51 (USP51, Homo sapiens, UniProt Q70EK9)
Sequence of UniProt Q70EK9 (whole entry, looked up): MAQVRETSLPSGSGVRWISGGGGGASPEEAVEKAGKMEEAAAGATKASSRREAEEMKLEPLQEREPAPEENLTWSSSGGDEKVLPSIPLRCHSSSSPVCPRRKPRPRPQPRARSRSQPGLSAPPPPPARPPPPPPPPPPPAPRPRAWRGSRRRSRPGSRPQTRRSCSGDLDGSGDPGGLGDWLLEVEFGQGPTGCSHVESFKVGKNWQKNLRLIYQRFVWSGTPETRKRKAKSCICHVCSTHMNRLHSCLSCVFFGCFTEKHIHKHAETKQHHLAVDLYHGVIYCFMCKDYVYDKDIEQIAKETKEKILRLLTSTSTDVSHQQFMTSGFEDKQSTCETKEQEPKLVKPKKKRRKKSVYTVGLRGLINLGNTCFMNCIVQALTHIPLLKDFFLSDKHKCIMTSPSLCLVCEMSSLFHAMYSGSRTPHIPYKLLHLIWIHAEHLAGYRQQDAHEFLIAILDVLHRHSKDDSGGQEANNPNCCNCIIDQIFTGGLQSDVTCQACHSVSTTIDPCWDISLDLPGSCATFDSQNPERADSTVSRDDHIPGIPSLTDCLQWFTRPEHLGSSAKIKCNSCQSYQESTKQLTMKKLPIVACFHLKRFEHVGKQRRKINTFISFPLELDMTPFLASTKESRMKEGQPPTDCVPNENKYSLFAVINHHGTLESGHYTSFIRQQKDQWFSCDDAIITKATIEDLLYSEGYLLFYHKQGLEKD
PTGS2: Prostaglandin G/H synthase 2 (PTGS2, Homo sapiens, UniProt P35354)
Sequence of UniProt P35354 (whole entry, looked up): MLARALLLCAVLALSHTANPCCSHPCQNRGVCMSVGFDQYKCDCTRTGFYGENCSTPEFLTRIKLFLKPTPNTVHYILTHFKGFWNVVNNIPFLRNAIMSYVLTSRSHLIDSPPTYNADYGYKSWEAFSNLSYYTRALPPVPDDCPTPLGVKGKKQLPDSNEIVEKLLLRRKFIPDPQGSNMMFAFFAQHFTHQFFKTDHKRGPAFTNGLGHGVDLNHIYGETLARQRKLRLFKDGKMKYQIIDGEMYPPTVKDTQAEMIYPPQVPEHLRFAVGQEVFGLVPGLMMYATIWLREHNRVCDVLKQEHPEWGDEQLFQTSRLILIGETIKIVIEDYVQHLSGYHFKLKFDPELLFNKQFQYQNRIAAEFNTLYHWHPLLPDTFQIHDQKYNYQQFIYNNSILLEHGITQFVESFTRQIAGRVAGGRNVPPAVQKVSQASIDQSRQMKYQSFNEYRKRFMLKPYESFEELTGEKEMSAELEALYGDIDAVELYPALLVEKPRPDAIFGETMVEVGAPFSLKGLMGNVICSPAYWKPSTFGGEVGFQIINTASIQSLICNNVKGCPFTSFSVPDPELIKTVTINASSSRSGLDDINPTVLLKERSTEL
HDAC8: Histone deacetylase 8 (HDAC8, Homo sapiens, UniProt Q9BY41)
Sequence of UniProt Q9BY41 (whole entry, looked up): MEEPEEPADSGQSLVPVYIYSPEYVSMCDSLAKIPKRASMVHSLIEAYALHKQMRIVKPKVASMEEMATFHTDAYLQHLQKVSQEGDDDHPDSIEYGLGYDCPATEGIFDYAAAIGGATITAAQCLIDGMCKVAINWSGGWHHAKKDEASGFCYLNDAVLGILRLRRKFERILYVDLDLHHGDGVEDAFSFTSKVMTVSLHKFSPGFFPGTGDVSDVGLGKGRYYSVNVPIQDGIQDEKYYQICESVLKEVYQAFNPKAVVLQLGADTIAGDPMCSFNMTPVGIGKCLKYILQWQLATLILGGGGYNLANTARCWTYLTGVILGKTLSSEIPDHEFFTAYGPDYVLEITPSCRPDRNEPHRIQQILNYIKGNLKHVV
HDAC1: Histone deacetylase 1 (HDAC1, Homo sapiens, UniProt Q13547)
Sequence of UniProt Q13547 (whole entry, looked up): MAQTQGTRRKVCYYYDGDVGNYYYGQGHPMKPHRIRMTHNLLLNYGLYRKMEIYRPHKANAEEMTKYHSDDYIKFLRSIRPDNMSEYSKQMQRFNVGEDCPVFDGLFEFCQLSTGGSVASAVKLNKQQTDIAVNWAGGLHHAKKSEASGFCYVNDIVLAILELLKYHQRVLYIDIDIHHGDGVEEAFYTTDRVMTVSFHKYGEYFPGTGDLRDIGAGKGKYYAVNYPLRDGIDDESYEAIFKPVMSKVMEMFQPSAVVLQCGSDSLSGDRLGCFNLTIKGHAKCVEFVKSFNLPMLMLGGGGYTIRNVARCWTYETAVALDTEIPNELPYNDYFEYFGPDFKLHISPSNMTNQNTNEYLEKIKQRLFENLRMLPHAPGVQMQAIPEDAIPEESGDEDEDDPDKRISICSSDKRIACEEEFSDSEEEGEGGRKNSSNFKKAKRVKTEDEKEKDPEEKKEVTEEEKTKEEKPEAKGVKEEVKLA
SIRT6: NAD-dependent protein deacylase sirtuin-6 (SIRT6, Homo sapiens, UniProt Q8N6T7)
Sequence of UniProt Q8N6T7 (whole entry, looked up): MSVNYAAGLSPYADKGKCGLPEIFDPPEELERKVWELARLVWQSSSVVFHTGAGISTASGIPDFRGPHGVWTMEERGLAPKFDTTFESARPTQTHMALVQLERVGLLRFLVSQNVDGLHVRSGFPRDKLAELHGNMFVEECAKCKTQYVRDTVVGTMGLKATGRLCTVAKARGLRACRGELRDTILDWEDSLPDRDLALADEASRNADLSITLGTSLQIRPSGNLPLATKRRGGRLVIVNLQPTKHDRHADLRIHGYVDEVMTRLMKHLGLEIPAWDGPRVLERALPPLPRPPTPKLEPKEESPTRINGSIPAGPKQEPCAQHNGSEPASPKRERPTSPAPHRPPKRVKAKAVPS
PDE10A: cAMP and cAMP-inhibited cGMP 3',5'-cyclic phosphodiesterase 10A (PDE10A, Homo sapiens, UniProt Q9Y233)
Sequence of UniProt Q9Y233 (whole entry, looked up): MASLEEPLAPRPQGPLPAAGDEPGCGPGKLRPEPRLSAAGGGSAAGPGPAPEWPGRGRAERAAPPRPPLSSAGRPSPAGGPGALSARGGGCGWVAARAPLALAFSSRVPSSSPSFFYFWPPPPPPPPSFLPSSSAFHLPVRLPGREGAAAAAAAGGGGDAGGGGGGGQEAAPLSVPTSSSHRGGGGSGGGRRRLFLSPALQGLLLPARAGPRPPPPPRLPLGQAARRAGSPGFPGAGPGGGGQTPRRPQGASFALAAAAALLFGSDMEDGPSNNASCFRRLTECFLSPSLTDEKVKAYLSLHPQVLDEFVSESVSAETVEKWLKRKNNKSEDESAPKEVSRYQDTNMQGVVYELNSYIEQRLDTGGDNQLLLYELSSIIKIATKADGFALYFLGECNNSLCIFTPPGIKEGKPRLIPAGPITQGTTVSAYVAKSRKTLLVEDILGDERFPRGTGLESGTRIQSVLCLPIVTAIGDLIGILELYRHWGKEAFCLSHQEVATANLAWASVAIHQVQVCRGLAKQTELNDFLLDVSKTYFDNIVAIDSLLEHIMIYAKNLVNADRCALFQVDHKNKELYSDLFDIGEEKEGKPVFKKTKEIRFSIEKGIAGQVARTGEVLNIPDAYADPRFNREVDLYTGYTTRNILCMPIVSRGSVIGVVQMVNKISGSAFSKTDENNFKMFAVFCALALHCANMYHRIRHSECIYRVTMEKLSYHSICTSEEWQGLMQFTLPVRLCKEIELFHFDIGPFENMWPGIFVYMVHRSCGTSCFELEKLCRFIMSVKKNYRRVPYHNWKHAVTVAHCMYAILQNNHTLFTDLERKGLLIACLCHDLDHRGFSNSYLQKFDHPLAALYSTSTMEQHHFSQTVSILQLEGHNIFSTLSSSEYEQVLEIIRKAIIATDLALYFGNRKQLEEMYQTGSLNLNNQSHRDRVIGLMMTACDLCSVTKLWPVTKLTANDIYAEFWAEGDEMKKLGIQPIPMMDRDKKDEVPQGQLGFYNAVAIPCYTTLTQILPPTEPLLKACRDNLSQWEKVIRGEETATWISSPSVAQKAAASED
SCN1A: Sodium channel protein type 1 subunit alpha (SCN1A, Homo sapiens, UniProt P35498)
MPO: Myeloperoxidase (MPO, Homo sapiens, UniProt P05164)
Sequence of UniProt P05164 (whole entry, looked up): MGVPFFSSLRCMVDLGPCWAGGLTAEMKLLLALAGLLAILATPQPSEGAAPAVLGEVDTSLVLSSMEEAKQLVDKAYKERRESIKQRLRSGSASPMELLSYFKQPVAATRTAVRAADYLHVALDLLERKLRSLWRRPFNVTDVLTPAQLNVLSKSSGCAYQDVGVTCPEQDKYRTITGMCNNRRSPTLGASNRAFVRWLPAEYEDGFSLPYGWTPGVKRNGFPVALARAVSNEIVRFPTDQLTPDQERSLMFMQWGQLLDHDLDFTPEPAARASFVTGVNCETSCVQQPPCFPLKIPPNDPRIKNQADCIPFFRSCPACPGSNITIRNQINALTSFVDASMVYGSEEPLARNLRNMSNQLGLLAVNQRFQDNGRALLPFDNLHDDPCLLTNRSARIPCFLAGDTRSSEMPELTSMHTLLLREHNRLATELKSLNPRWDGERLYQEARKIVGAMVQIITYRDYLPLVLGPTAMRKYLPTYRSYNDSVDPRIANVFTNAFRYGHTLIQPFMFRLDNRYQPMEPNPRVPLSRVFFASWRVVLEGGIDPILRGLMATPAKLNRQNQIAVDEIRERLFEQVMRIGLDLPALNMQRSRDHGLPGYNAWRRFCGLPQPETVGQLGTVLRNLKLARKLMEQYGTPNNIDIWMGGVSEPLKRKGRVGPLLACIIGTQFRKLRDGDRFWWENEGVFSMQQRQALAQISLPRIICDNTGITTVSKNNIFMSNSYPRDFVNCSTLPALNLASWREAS
SLC6A4: Sodium-dependent serotonin transporter (SLC6A4, Homo sapiens, UniProt P31645)
Sequence of UniProt P31645 (whole entry, looked up): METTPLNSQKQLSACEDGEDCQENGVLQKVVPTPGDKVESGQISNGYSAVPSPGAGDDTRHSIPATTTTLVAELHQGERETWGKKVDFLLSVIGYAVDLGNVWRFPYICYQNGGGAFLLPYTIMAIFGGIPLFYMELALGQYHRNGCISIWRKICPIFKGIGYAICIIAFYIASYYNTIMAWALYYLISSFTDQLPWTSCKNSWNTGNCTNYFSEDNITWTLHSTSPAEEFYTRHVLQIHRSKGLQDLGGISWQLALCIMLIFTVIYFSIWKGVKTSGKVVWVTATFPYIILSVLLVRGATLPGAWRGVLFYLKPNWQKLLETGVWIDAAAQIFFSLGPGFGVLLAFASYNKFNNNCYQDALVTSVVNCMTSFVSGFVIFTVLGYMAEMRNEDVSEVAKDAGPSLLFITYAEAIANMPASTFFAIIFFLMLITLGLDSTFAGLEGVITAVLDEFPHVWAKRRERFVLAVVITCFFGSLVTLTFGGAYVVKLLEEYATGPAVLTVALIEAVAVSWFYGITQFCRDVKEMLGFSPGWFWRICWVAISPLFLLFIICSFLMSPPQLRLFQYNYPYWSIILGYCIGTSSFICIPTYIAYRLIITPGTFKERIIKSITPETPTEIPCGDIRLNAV

`C#Cc1cc(-c2cc(Nc3nc(N[C@@H](C)c4ccc(F)cn4)ncc3Cl)n[nH]2)ccc1C=O` has an inhibition of 2.35% (Calcium/calmodulin-dependent protein kinase type 1D (CAMK1D, Homo sapiens, UniProt Q8IU85); enzyme activity, inhibitor; 0.2 µM).
The remaining binding of `CCCCC(=O)Nc1ccc(-c2ccc3ncn(CCC)c(=O)c3c2)cn1` is reported as 100% (Serine/threonine-protein kinase SIK2 (SIK2, Homo sapiens, UniProt Q9H0K1); binding, competition with immobilised ligand; 0.5 µM).
For `Nc1ncnc2occ(-c3ccc(NC(=O)Nc4cc(C(F)(F)F)ccc4F)cc3)c12`, the remaining signal was 2.8% (Mast/stem cell growth factor receptor Kit (KIT, Homo sapiens, UniProt P10721, D816H); cell-free assay, inhibitor; 20 µM).
`C[N+](C)(C)C[C@H](O)CC(=O)[O-]` gave an inhibition of 0% (USP51; enzyme activity, inhibitor; 5 µM).
With `COC(=O)c1ccc(O)cc1` the inhibition was 0% (PTGS2; enzyme activity, inhibitor; 1.95 µg/mL).
With `C[C@]12CC[C@@H]3c4ccc(O)cc4CC[C@H]3[C@@H]1CC[C@@H]2O` the inhibition was 12% (USP51; enzyme activity, inhibitor; 5 µM).
For `CCCCCCC#Cc1cncc(-c2nnc(SCc3ccc([N+](=O)[O-])cc3)n2CCCN)c1`, the inhibition was 82% (mraY (Staphylococcus aureus, UniProt Q2FZ93); cell-free assay, inhibitor; 250 µM).
For `Cc1c(OS(=O)(=O)Oc2ccccc2)cccc1C(=O)NO`, the inhibition was 32% (HDAC8; enzyme activity, inhibitor, fluorescence; 10 µM).
`C=CC(=O)N1CCC(COCC(=O)N2CCN(c3nc(-c4cnc(N)nc4C(F)F)nc(N4CCOC[C@@H]4C)n3)CC2)CC1` gave a remaining binding of 100% (Homeodomain-interacting protein kinase 3 (HIPK3, Homo sapiens, UniProt Q9H422); binding, competition with immobilised ligand; 1 µM).
`Cc1cc(OS(=O)(=O)Oc2ccc(C(F)(F)F)cc2)cc(C(=O)NO)c1` has an inhibition of 13% (HDAC1; enzyme activity, inhibitor, fluorescence; 10 µM).
`CC(=O)Nc1ccc(C(=O)NOCc2ccccc2)cc1` gave an inhibition of 46% (SIRT6; enzyme activity, inhibitor, fluorescence; 100 µM).
`CN1CC(Oc2cnc(C#N)cc2-c2ccn3nc(NC(=O)C4CC4)cc3c2)C1` gave an inhibition of -21% (Serine/threonine-protein kinase 25 (STK25, Homo sapiens, UniProt O00506); enzyme activity, inhibitor; 1 µM).
`CC(C)c1[nH]c2nc(N)nn2c(=O)c1Cc1cccc(Cl)c1` gave an inhibition of 83% (C-C chemokine receptor type 5 (CCR5, Homo sapiens, UniProt P51681); β-arrestin recruitment, antagonist; 1 µM).
`O=C(O)/C=C/C(=O)O` has an inhibition of 10% (USP51; enzyme activity, inhibitor; 5 µM).
`Cc1cc(C(C)(C)C)ccc1OS(=O)(=O)Oc1cc(F)cc(C(=O)NO)c1` has an inhibition of 7% (HDAC1; enzyme activity, inhibitor, fluorescence; 5 µM).
`C=C[C@@]1(C)C=C2CC[C@@H]3[C@](C)(CCC[C@@]3(C)C(=O)O)[C@H]2CC1` has an inhibition of 0% (PTGS2; enzyme activity, inhibitor; 0.12 µg/mL).
`COc1cc2ncnc(Cc3cccc(-c4cccnc4)c3)c2cc1OC` gave an inhibition of 75% (PDE10A; enzyme activity, inhibitor, FP; 0.1 µM).
With `O=C(NO)c1cccc(OS(=O)(=O)Oc2ccc(C(F)(F)F)cc2)c1` the inhibition was 47% (HDAC1; enzyme activity, inhibitor, fluorescence; 10 µM).
For `CNCCCC12CCC(c3ccccc31)c1ccccc12`, the inhibition was 6.2% (SCN1A; ion current, inhibitor, patch clamp; 3 µM).
`Cc1cc([C@@H](C)Nc2ccccc2C(=O)O)c2nc(N3CCC(F)(F)CC3)c(C#N)c(=O)n2c1` has a remaining binding of 100% (Serine/threonine-protein kinase pim-3 (PIM3, Homo sapiens, UniProt Q86V86); binding, competition with immobilised ligand; 10 µM).
`CC[C@H](C)[C@H](NC(=O)[C@H](CCC(N)=O)NC(=O)[C@H](CC(C)C)NC(=O)[C@H](CCSC)NC(=O)[C@H](CCCCN)NC(=O)[C@H](CO)NC(=O)[C@H](CO)NC(=O)[C@H](CCSC)NC(=O)[C@H](CC(C)C)NC(=O)[C@H](CC(N)=O)NC(=O)[C@@H](NC(=O)[C@@H](NC(=O)[C@H](CO)NC(=O)[C@H](CC(C)C)NC(=O)[C@H](CS)NC(=O)[C@H](CCCNC(=N)N)NC(=O)[C@H](CC(=O)O)NC(=O)[C@H](Cc1c[nH]c2ccccc12)NC(=O)[C@H](Cc1ccccc1)NC(=O)[C@H](C)NC(=O)[C@H](CCC(=O)O)NC(=O)[C@@H](N)CCCCN)C(C)C)[C@@H](C)CC)C(=O)N[C@@H](CC(N)=O)C(=O)N[C@@H](C)C(=O)O` has an inhibition of 76% (Cyclin-dependent kinase 5, with p35 (CDK5, Homo sapiens, UniProt Q00535); enzyme activity, inhibitor, radiometric; 500 µM).
The inhibition of `NC(=O)c1ccc(C(=O)NOCc2cccc(-c3ccccc3)c2)cc1` is reported as 84% (SIRT6; enzyme activity, inhibitor, fluorescence; 100 µM).
With `O=c1cc(-c2ccc(O)cc2)oc2cc(O)cc(O)c12` the inhibition was 57% (PTGS2; enzyme activity, inhibitor; 3.9 µg/mL).
With `O=C1NC(=O)C(c2ccccc2)(c2ccccc2)N1` the inhibition was 5.75% (SCN1A; ion current, inhibitor, patch clamp; 10 µM).
`NC(=O)c1ccc(C(=O)NOCc2ccc(-c3ccccc3)cc2)cc1` has an inhibition of 98.3% (SIRT6; enzyme activity, inhibitor, fluorescence; 100 µM).
With `Cc1cc(OS(=O)(=O)Oc2ccc(C(C)(C)C)cc2)cc(C(=O)NO)c1` the inhibition was 25% (HDAC8; enzyme activity, inhibitor, fluorescence; 10 µM).
`NC/C(=C\F)COc1cccc(Cn2c(=S)[nH]c(=O)c3[nH]cnc32)c1` gave an inhibition of 96% (MPO; enzyme activity, inhibitor, fluorescence; 0.1235 µM).
For `COc1cc2ncnc(Cc3ccc4cnn(C)c4c3)c2cc1OC`, the inhibition was 48% (PDE10A; enzyme activity, inhibitor, FP; 0.1 µM).
The inhibition of `C=C1C[C@@]23CC[C@H]4[C@@](C)(CCC[C@@]4(C)C(=O)O[C@@H]4O[C@H](CO)[C@@H](O)[C@H](O)[C@H]4O)[C@@H]2CC[C@]1(O[C@@H]1O[C@H](CO)[C@@H](O)[C@H](O)[C@H]1O[C@@H]1O[C@H](CO)[C@@H](O)[C@H](O[C@@H]2O[C@H](CO)[C@@H](O)[C@H](O)[C@H]2O)[C@H]1O)C3` is reported as 71% (USP51; enzyme activity, inhibitor; 5 µM).
The inhibition of `O=c1cc(-c2ccc(O)c(O)c2)oc2cc(O)cc(O)c12` is reported as 100% (PTGS2; enzyme activity, inhibitor; 7.81 µg/mL).
The inhibition of `CC[C@H](C)[C@H](NC(=O)[C@H](CCC(N)=O)NC(=O)[C@@H](NC(=O)[C@H](CCSC)NC(=O)[C@H](CCCCN)NC(=O)[C@H](CO)NC(=O)[C@@H](NC(=O)[C@H](CCSC)NC(=O)[C@H](CC(C)C)NC(=O)[C@H](CC(N)=O)NC(=O)[C@@H](NC(=O)[C@@H](NC(=O)[C@H](CO)NC(=O)[C@H](CC(C)C)NC(=O)[C@H](C)NC(=O)[C@H](CCCNC(=N)N)NC(=O)[C@H](CCC(=O)O)NC(=O)[C@H](Cc1ccc(O)cc1)NC(=O)[C@H](Cc1ccccc1)NC(=O)[C@H](C)NC(=O)[C@H](CC(N)=O)NC(=O)[C@@H](N)CCCCN)[C@@H](C)CC)[C@@H](C)CC)[C@@H](C)O)C(C)C)C(=O)N[C@@H](CC(N)=O)C(=O)N[C@H](C(=O)O)C(C)C` is reported as -15% (Glycogen synthase kinase-3 beta (GSK3B, Homo sapiens, UniProt P49841); enzyme activity, inhibitor, radiometric; 100 µM).
The inhibition of `O=c1c(O[C@@H]2O[C@H](CO)[C@@H](O)[C@H](O)[C@H]2O)c(-c2ccc(O)c(O)c2)oc2cc(O)cc(O)c12` is reported as 20% (USP51; enzyme activity, inhibitor; 5 µM).
`O=C(NO)c1cccc(OS(=O)(=O)Oc2ccccc2OCc2ccccc2)c1` has an inhibition of 26% (HDAC1; enzyme activity, inhibitor, fluorescence; 10 µM).
With `C1=C/COCc2cc(ccc2OCCN2CCCC2)Nc2nccc(n2)-c2cccc(c2)COC/1` the remaining binding was 100% (Serine/threonine-protein kinase BRSK2 (BRSK2, Homo sapiens, UniProt Q8IWQ3); binding; 0.1 µM).
For `O=C(/C=C/c1ccc(O)c(O)c1)O[C@H](Cc1ccc(O)c(O)c1)C(=O)O`, the inhibition was 45% (USP51; enzyme activity, inhibitor; 5 µM).
The remaining activity of `COc1cc(-c2cncc3c2CN(C)Cc2cc(N4CCNCC4)ccc2-3)cc(OC)c1OC` is reported as 104% (eIF-2-alpha kinase GCN2 (EIF2AK4, Homo sapiens, UniProt Q9P2K8); enzyme activity, inhibitor; 1 µM).
`CNc1ncc2c(/C=C/C(=O)N3CCC(OC)CC3)nn(Cc3cccc(C(F)(F)F)c3)c2n1` has a remaining activity of 97% (Interleukin-1 receptor-associated kinase 4 (IRAK4, Homo sapiens, UniProt Q9NWZ3); enzyme activity, inhibitor, radiometric; 1 µM).
`COc1cc([C@H]2OC[C@H]3[C@@H]2CO[C@@H]3c2cc(OC)c(O)c(OC)c2)cc(OC)c1O` gave an inhibition of 59.3% (PTGS2; enzyme activity, inhibitor; 1.95 µg/mL).
`CC1(C)CCC[C@](C)([C@H]2CC[C@]3(C)[C@@H]2[C@H](O)C[C@@H]2[C@@]4(C)CC[C@H](O)C(C)(C)[C@@H]4[C@@H](O)C[C@]23C)O1` has an inhibition of 0% (USP51; enzyme activity, inhibitor; 5 µM).
The half-life of `O=C1CC[C@H](N2Cc3cc(N4CCN(CC5CCN(c6ccc([C@@H]7c8ccc(O)cc8CC[C@@H]7c7ccccc7)cc6)CC5)CC4)ccc3C2=O)C(=O)N1` is reported as 4.62 h (male Sprague-Dawley rat, plasma; oral, 20 mg/kg, fed).
With `CCCN1C[C@H](CSC)C[C@@H]2c3cccc4[nH]cc(c34)C[C@H]21` the inhibition was 18.7% (SCN1A; ion current, inhibitor, patch clamp; 3 µM).
With `N#CC[C@@]12C[C@@H]1[C@@H](n1cnc3c(NCCCCCc4ccccc4)nc(C#Cc4ccc(Cl)s4)nc31)[C@H](O)[C@@H]2O` the inhibition was 0% (SLC6A4; ligand displacement, radioligand; 10 µM).
`S=C(NCc1ccc(Cl)cc1)NN=Cc1ccc(N2CCCCC2)cc1` has an inhibition of 88.9% (Dihydrofolate reductase (DHFR, Homo sapiens, UniProt P00374); enzyme activity, inhibitor; 500 µM).
For `O=C1CCC[C@@H]2[C@H]3CCC[N+]4([O-])CCC[C@@H](CN12)[C@@H]34` (stereo partly shown), the inhibition was 6% (USP51; enzyme activity, inhibitor; 5 µM).
The inhibition of `Cc1cccc(N(O)N=Nc2ccc(S(=O)(=O)Nc3nccs3)cc2)c1` is reported as 99.8% (ABTS scavenging; 240 µg/mL).
The inhibition of `COc1ccc2ncnc(Cc3ccc(OC)c(OC)c3)c2c1` is reported as 25% (PDE10A; enzyme activity, inhibitor, FP; 0.1 µM).
`CC(C)OCCn1c(=S)[nH]c(=O)c2[nH]ccc21` has an inhibition of 98.9% (MPO; enzyme activity, inhibitor, fluorescence; 5 µM).
`CC(C)c1ccc(OS(=O)(=O)Oc2cc(F)cc(C(=O)NO)c2)cc1` has an inhibition of 6% (HDAC1; enzyme activity, inhibitor, fluorescence; 5 µM).
With `N#CC[C@@]12C[C@@H]1[C@@H](n1cnc3c(Nc4ccccc4)nc(I)nc31)[C@H](O)[C@@H]2O` the inhibition was 23% (SLC6A4; ligand displacement, radioligand; 10 µM).
The inhibition of `COc1cc(-c2cc(C(C)=O)n3ccccc23)c(OC)cc1Cn1ccnc1` is reported as 98.9% (Bromodomain-containing protein 9 (BRD9, Homo sapiens, UniProt Q9H8M2); protein-protein interaction, inhibitor, AlphaScreen; 1 µM).
The inhibition of `CCc1nn(C)c2nc(-c3ccc(C(=O)O)cc3)nc(NCc3ccc(F)cc3)c12` is reported as 19.1% (Dual specificity calcium/calmodulin-dependent 3',5'-cyclic nucleotide phosphodiesterase 1B (Homo sapiens, UniProt Q01064); enzyme activity, inhibitor, radiometric; 10 µM).
With `Nc1ccn([C@@H]2O[C@H](CO)[C@@H](O)C2(F)F)c(=O)n1` the viability was 39.8% (MCF7; cell growth or viability, MTT; 2.5 µg/mL, 48 h).

Some of these lines once more:
With `N#CC[C@@]12C[C@@H]1[C@@H](n1cnc3c(NCCCCCc4ccccc4)nc(C#Cc4ccc(Cl)s4)nc31)[C@H](O)[C@@H]2O` the inhibition was 0% (SLC6A4; ligand displacement, radioligand; 10 µM).
`S=C(NCc1ccc(Cl)cc1)NN=Cc1ccc(N2CCCCC2)cc1` has an inhibition of 88.9% (Dihydrofolate reductase (DHFR, Homo sapiens, UniProt P00374); enzyme activity, inhibitor; 500 µM).
For `O=C1CCC[C@@H]2[C@H]3CCC[N+]4([O-])CCC[C@@H](CN12)[C@@H]34` (stereo partly shown), the inhibition was 6% (USP51; enzyme activity, inhibitor; 5 µM).
